Assay results of several laboratories.
Each line is one published result; not all experiments were run side by side. ± marks the error that the study gave.
Target: fMet-Leu-Phe receptor (FPR1, Homo sapiens, UniProt P21462)
Sequence (P21462 1-350, as in one of the studies): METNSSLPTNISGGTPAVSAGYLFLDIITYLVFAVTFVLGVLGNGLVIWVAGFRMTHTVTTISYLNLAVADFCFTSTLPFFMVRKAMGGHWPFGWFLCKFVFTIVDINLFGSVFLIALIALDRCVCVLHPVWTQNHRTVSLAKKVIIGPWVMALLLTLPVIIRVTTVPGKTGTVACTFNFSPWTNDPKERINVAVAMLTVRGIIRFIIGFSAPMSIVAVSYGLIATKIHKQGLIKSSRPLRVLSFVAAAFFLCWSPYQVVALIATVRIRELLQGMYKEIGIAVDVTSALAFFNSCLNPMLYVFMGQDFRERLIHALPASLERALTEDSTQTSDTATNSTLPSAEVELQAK

SMILES | test | test system | setting | quantity | value
COc1cccc(Cc2cc(C)nn(C(C(=O)Nc3ccc(Br)cc3)c3ccccc3)c2=O)c1 (racemic) | calcium mobilization, agonist | HL-60 transfected with FPR1 |  | EC50 | 3.1 µM
COc1ccc(OC)c(C2C(C(=O)c3ccccc3)=C(O)C(=O)N2CCCN2CCOCC2)c1 (centres unmarked) | fMLF-induced calcium mobilization, antagonist | HL-60 expressing FPR1 | 30 min pretreatment, inactive if none at 50 µM, together with: 5 nM fMLF | IC50 | 5 µM
CCCC(C(=O)Nc1ccc(Br)cc1)n1nc(C)cc(Cc2cccc(OC)c2)c1=O (racemic) | calcium mobilization, agonist | HL-60 transfected with FPR1 |  | EC50 | 2.8 µM
CCOc1ccc2nc(SCC(=O)Nc3ccc(Br)cc3)[nH]c2c1 | calcium mobilization, agonist | HL-60 transfected with FPR1 |  | EC50 | 13.2 µM
N#Cc1ccc(C[C@H](NC(=O)Nc2ccc(O)cc2)C(=O)NCC2(c3ccccc3)CC2)cc1 | calcium mobilization | FPR1-transfected HL-60 | desensitization pretreatment, together with: fMLF 5 nM | IC50 | 16.4 ± 3.4 µM
COCCN1C(=O)C(O)=C(C(=O)c2ccc(C)cc2)C1c1ccc(OC)cc1OC (centres unmarked) | fMLF-induced calcium mobilization, antagonist | HL-60 expressing FPR1 | 30 min pretreatment, inactive if none at 50 µM, together with: 5 nM fMLF | IC50 | 10.5 µM
CCCCC(C(=O)Nc1ccc(Br)cc1)n1nc(C)cc(Cc2cccc(OC)c2)c1=O (racemic) | calcium mobilization, agonist | HL-60 transfected with FPR1 |  | EC50 | 1.1 µM
COc1ccc2nc(SCC(=O)Nc3ccc(OC(F)(F)F)cc3)[nH]c2c1 | calcium mobilization, agonist | HL-60 transfected with FPR1 |  | EC50 | 11.6 µM
O=C(Nc1ccc([N+](=O)[O-])cc1)N[C@@H](Cc1c[nH]c2ccccc12)C(=O)NCC1(c2ccccn2)CCCCC1 | β-arrestin recruitment, agonist | CHO-K1 expressing FPR1 |  | EC50 | 18.5 ± 5.1 µM
COc1ccc2nc(SCC(=O)Nc3ccc(S(N)(=O)=O)cc3)[nH]c2c1 | calcium mobilization, agonist | HL-60 transfected with FPR1 |  | EC50 | 14.9 µM
O=C(Nc1ccc([N+](=O)[O-])cc1)N[C@H](Cc1c[nH]c2ccccc12)C(=O)NCC1(c2ccccc2)CCCCC1 | fMLF-induced Ca2+ flux, antagonist | HL-60 expressing FPR1 | up to 50 µM, 30 min, together with: fMLF 5 nM | IC50 | no inhibition
